# Experimental data pooled from the literature.
# Each line is one published result; not all experiments were run side by side. ± gives the spread as reported.
Compound,assay,system,setting,tissue uptake
[2H]C([2H])([18F])[C@]([2H])(N)C(=O)O,,"athymic nude mouse, non-bone tissues",110 min,≤ 1 %ID/g
CN1Cc2cc(Cl)ccc2-n2c(nnc2C2CCN(c3cccc([18F])n3)CC2)C1,,"C57BL/6 mouse male, spleen","intravenous, 3.7 MBq, 5 min",4.82 ± 0.4 %ID/g
CC[C@H](C)[C@H](NC(=O)[C@@H](Cc1c[nH]c2ccccc12)NC(=O)[C@@H]1CCCN1C(=O)[C@H](CCCCN)NC(=O)[C@H](CCCCN)NC(=O)CCNC(=O)CCNC(=O)CN1CCN(CC(=O)O)CCN(CC(=O)O)CCN(CC(=O)O)CC1)C(=O)N[C@@H](C[Si](C)(C)C)C(=O)O [gallium-68 labelled],,"nude mouse HT-29 xenograft, liver",90 min,0.22 ± 0.17 %ID/g
CC[C@H](C)[C@H](NC(=O)[C@H](CCCNC(=N)N)NC(=O)[C@H](CCCCN)NC(=O)[C@H](Cc1ccc(O)cc1)NC(=O)[C@H](CC(=O)O)NC(=O)[C@H](C)NC(=O)CNC(=O)CCOCCOCCOCCNC(=O)CN1CCN(CC(=O)O)CCN(CC(=O)O)CCN(CC(=O)O)CC1)C(=O)N[C@H](C(=O)N[C@H](C(=O)N[C@@H](CCCCN)C(=O)N[C@H](C(=O)N[C@@H](CC(N)=O)C(N)=O)C(C)C)C(C)C)[C@@H](C)O [copper-64 labelled],ex vivo gamma counting,"male C57BL/6J mouse, B16-F10 tumour, B16-F10 tumour","intravenous, 1.85 MBq, 40 min",1.79 ± 0.031 %ID/g
CC[C@H](C)[C@H](NC(=O)[C@H](CCCCN)NC(=O)CNC(=O)[C@H](CC(C)C)NC(=O)[C@H](Cc1ccccc1)NC(=O)[C@H](CCCCN)NC(=O)[C@H](CO)NC(=O)[C@H](Cc1ccccc1)NC(=O)[C@H](Cc1c[nH]c2ccccc12)NC(=O)[C@H](CCC(N)=O)NC(=O)[C@@H](NC(=O)[C@H](Cc1ccccc1)NC(=O)CCCCCNC(=O)CN1CCN(CC(=O)O)CCN(CC(=O)O)CCN(CC(=O)O)CC1)C(C)C)C(=O)N[C@@H](CCC(=O)O)C(=O)N1CCC[C@H]1C(=O)N[C@@H](CC(=O)O)C(=O)N[C@H](C(=O)N[C@@H](CO)C(=O)N[C@@H](CCC(N)=O)C(=O)N[C@H](C(=O)N[C@@H](CCC(N)=O)C(=O)N[C@@H](CC(=O)O)C(=O)N1CCC[C@H]1C(=O)N[C@@H](CC(N)=O)C(=O)N[C@@H](CC(=O)O)C(=O)N[C@@H](CCC(N)=O)C(=O)N[C@@H](Cc1ccc(O)cc1)C(=O)N[C@@H](CCC(=O)O)C(=O)N1CCC[C@H]1C(=O)N[C@@H](Cc1ccccc1)C(=O)O)C(C)C)C(C)C [copper-64 labelled],,"GZMB-/- mouse bearing CT26 tumour, tumor","dose not given, 2 h, vehicle-treated",1.66 ± 0.3 %ID/g
"O=C([O-])CN1CCCN2CCN(CCCN(CC(=O)NC(Cc3ccccc3)C(=O)NC(Cc3ccccc3)C(=O)NCCCC[C@H](NC(=O)CCCCCCC(=O)NCCCC[C@H](NC(=O)N[C@@H](CCC(=O)O)C(=O)O)C(=O)O)C(=O)O)CC2)CC1.[64Cu+2] (single isomer, unassigned)",,"mouse PC-3 flu tumour, PSMA− tumour",2 h,0.26 ± 0.04 %ID/g
CSCC[C@H](NC(=O)CNC(=O)[C@H](CCCCN)NC(=O)[C@H](CC(C)C)NC(=O)[C@@H]1CCCN1C(=O)[C@H](CO)NC(=O)[C@H](Cc1c[nH]cn1)NC(=O)[C@H](Cc1c[nH]c2ccccc12)NC(=O)[C@H](CCCNC(=N)N)NC(=O)[C@H](CC(C)C)NC(=O)[C@H](CCCNC(=N)N)NC(=O)[C@H](Cc1c[nH]c2ccccc12)NC(=O)[C@H](CS)NC(=O)CCCCCNC(=O)CN1CCN(CC(=O)O)CCN(CC(=O)O)CCN(CC(=O)O)CC1)C(=O)O [copper-64 labelled],,"BALB/c nude mouse, Huh-7 tumour, small intestine","intravenous, 18 h, ex vivo biodistribution",3.52 %ID/g
CC[C@H](C)[C@H](NC(=O)[C@H](CCCNC(=N)N)NC(=O)[C@H](CCCCN)NC(=O)[C@H](Cc1ccc(O)cc1)NC(=O)[C@H](CC(=O)O)NC(=O)[C@H](C)NC(=O)CNC(=O)CCOCCOCCOCCNC(=O)CN1CCN(CC(=O)O)CCN(CC(=O)O)CCN(CC(=O)O)CC1)C(=O)N[C@H](C(=O)N[C@@H](CC(C)C)C(=O)N[C@@H](CCCCN)C(=O)N[C@H](C(=O)N[C@@H](CC(N)=O)C(N)=O)C(C)C)[C@@H](C)O [copper-64 labelled],,"C57BL/6J mouse male, B16-F10 tumour, small intestine","intravenous, 1.85 MBq, 5 min, 67Ga complex",1.46 ± 0.155 %ID/g

# Repeated from above:
Compound,assay,system,setting,tissue uptake
"O=C([O-])CN1CCCN2CCN(CCCN(CC(=O)NC(Cc3ccccc3)C(=O)NC(Cc3ccccc3)C(=O)NCCCC[C@H](NC(=O)CCCCCCC(=O)NCCCC[C@H](NC(=O)N[C@@H](CCC(=O)O)C(=O)O)C(=O)O)C(=O)O)CC2)CC1.[64Cu+2] (single isomer, unassigned)",,"mouse PC-3 flu tumour, PSMA− tumour",2 h,0.26 ± 0.04 %ID/g
